Results gathered from unrelated publications.
Each line is one published result; not all experiments were run side by side. ± gives the spread as reported.
LGALS3: Galectin-3 (LGALS3, Homo sapiens, UniProt P17931)
GLP1R: Glucagon-like peptide 1 receptor (GLP1R, Homo sapiens, UniProt P43220)
T1: i-motif DNA hif-1α promoter (Homo sapiens); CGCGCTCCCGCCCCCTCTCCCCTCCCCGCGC

`O=C(O)CCOCCOCCOCCOCCOCc1cn([C@H]2[C@@H](O)[C@@H](CO)O[C@@H](S[C@@H]3O[C@H](CO)[C@H](O)[C@H](n4cc(-c5ccccc5)nn4)[C@H]3O)[C@@H]2O)nn1`: “concentration for complete inhibition” over 25 µM (LGALS3; asialofetuin binding, ELISA; galectin-3 5.56 µM).
For `CCOCCNC(=O)N1CCC[C@H](c2n[nH]c(-c3ccccc3)n2)C1`, the apparent Km was 75 µM (Aromatase (CYP19A1, Homo sapiens, UniProt P11511); enzyme activity, inhibitor, MFC to HFC conversion; 40 µM, together with: MFC substrate).
For `COC(=O)c1ccc(CNC(=O)[C@@H]2C[C@@H](O)CN2C(C)=O)cc1`, “binding free energy (ΔG)” read -4.88 ± 0.01 kcal/mol (von Hippel-Lindau disease tumor suppressor, with Elongin B/C (VHL, Homo sapiens, UniProt P40337); isothermal titration calorimetry; 25 °C).
The –ΔH of `CC(=O)N[C@H]1[C@@H](O[C@H](C)[C@H](NC(=O)[C@@H](NC(=O)CNC(=O)[C@@H](N)Cc2c[nH]cn2)C(C)C)C(=O)N[C@@H](CO)C(=O)N[C@@H](C)C(=O)N2CCC[C@H]2C(=O)N[C@@H](CC(=O)O)C(=O)N[C@H](C(=O)N[C@@H](CCCNC(=N)N)C(=O)N2CCC[C@H]2C(=O)N[C@@H](C)C(=O)N2CCC[C@H]2C(=O)NCC(=O)N[C@@H](CO)C(N)=O)[C@@H](C)O)O[C@H](CO)[C@H](O)[C@@H]1O[C@@H]1O[C@H](CO)[C@H](O)[C@H](O)[C@H]1O` is reported as 1.79 kcal/mol (LGALS3; binding, isothermal titration calorimetry; full-length protein).
The complex half-life of `CO[C@H]1O[C@H](CO)[C@@H](O)[C@H](O)[C@@H]1O` is reported as 45 s (lecB (Pseudomonas aeruginosa, UniProt Q9HYN5); surface plasmon resonance).
With `CCCN(CC(=O)N(CCC)CC(=O)N(CCC)CC(=O)N(CCC)CC(=O)N(CCC)CC(=O)N(CCC)CC(=O)N(CCC)CC(=O)N(CCC)CC(=O)N(CC(N)=O)Cc1cn(CCCNC(=O)CCCOc2cccc(-c3nc4ccc(-c5nc6ccc(N7CCN(C)CC7)cc6[nH]5)cc4[nH]3)c2)nn1)C(=O)CNCc1cn(CCCNC(=O)CCCOc2cccc(-c3nc4ccc(-c5nc6ccc(N7CCN(C)CC7)cc6[nH]5)cc4[nH]3)c2)nn1` the multivalent effect was under 1.8 (MBNL1–r(CUG)109 complex; MBNL1 displacement; 0.65 pmol r(CUG)109; unit not given, together with: yeast tRNA 3.7 µM; baseline: monomer 2 IC50 per module).
For `CC(C)C1=CC23CCC4C(C)(C(=O)O)CCCC4(C)C2CC1C(C(=O)O)C3C(=O)O` (stereo not shown), “half-maximal quenching concentration ratio” read about 8 fold (RPA1 (Homo sapiens, UniProt P27694, R41E/R43E); tryptophan fluorescence quenching; baseline: this construct over wild-type RPA).
The ligand efficiency of `Cc1cc(=O)c(O)c(CN2CCSCC2)n1C` is reported as 0.42 (TDO2 (Homo sapiens, UniProt P48775)).
For `Cc1cc(C)c2sc(NC(=O)C3CCN(S(=O)(=O)c4ccc(F)cc4)CC3)nc2c1`, OEA/NOPE ratio read “increased” (Napepld (Mus musculus, UniProt Q8BH82); activator, LC-MS/MS; 10 or 20 µM, 90 min, together with: NOPE substrate).
Under “melting temperature shift”, `CC(C)(C)c1c[c-]c(-c2cncc(-c3[c-]cc(C(C)(C)C)cc3)n2)cc1.CN1[C]N(C)c2ccccc21.[Au+3]` is recorded as 31 °C (T1, i-motif DNA hif-1α promoter (Homo sapiens); FRET DNA melting; 20 µM, pH 7.2, NaCl 100 mM, upper bound).
The fold activation of `CCC(=O)N(C)c1ccc(Cl)c(Cl)c1` is reported as 26 fold (AHR (Homo sapiens, UniProt P35869); reporter gene, agonist; 100 µM; baseline: vehicle).
The k3 of `C=C1C[C@]2(C(=O)OC)C=C(C(=O)Nc3cccc(C(=O)Nc4ccc(Nc5nccc(-c6cccnc6)n5)c(C)c4)c3)C(=O)[C@H]1C2` is reported as 0.0063 s⁻¹ (MAPK8 (Homo sapiens, UniProt P45983); binding, SPR; 15, 40, 70 nM, parallel kinetic model).
`O=C(O)C1OC(OC2C(C(=O)O)OC(OC3C(C(=O)O)OC(OC4C(C(=O)O)OC(O)C(O)C4O)C(O)C3O)C(O)C2O)C(O)C(O)C1O` (stereo not shown) has a binding enthalpy of -4.3 ± 0.167 kcal/mol (Beta-lactoglobulin (LGB, Bos taurus, UniProt P02754, A134V/G80D); isothermal titration calorimetry; 50 mM KH2PO4; concentration not given, pH 4.00, 37 °C).
With `CCc1nc2cc3ccccc3cc2cc1C(=O)N1CCC[C@H]1C(=O)N[C@@H](CCC/C=C\CCC[C@H](NC(=O)[C@@H]1CCCN1C(=O)c1cc2cc3ccccc3cc2nc1CC)C(=O)N[C@@H](CCCCN)C(=O)NCCCN)C(=O)N[C@@H](CCCCN)C(=O)NCCCN` the residence time was 193 s ((CUG)10 RNA; SPR).
`COc1ccc(C(C=CCN2CCCC2C(O)C(=O)O)(c2ccc(OC)cc2)c2ccc(OC)cc2)cc1` (stereo not shown) gave a maximal inhibition of 25% (SLC6A11 (Homo sapiens, UniProt P48066); GABA uptake; HEK293T; 300 µM, no preincubation).
For `CN(C1COC1)C(C)(C)/C=C(\C#N)C(=O)N1CCC[C@H]1Cn1nc(-c2ccc(Oc3ccccc3)cc2F)c2c(N)ncnc21`, the target occupancy was 74 ± 9% (Tyrosine-protein kinase (Rattus norvegicus, UniProt Q5S255); rat, PBMC; oral, 40 mg/kg, 1 h, together with: BODIPY probe).
`CC(C)(Cn1cc(-c2cnc3cccnn23)nn1)c1c[nH]c2ccccc12` — result for “fold shift of EC50”: 86 fold (GLP1R; positive allosteric modulator, refers to: cAMP; CHO-K1 expressing GLP1R; 10 µM, together with: GLP-1(9-36); baseline: GLP-1 alone).
`CC[C@H](C)[C@H](NC(=O)[C@@H](NC(=O)[C@H](Cc1ccc(O)cc1)NC(=O)[C@H](Cc1ccc(OP(=O)(O)O)cc1)NC(=O)[C@H](CC(N)=O)NC(=O)[C@H](CCC(=O)O)NC(=O)[C@H](Cc1ccccc1)NC(=O)[C@@H](NC(=O)[C@H](CO)NC(=O)[C@H](CCC(=O)O)NC(=O)[C@H](CCCCN)NC(=O)[C@H](Cc1ccccc1)NC(=O)[C@@H](N)CCCCN)C(C)C)C(C)C)C(=O)N[C@@H](Cc1ccc(O)cc1)C(=O)N[C@@H](CO)C(=O)N[C@@H](CO)C(=O)N[C@@H](CCSC)C(=O)N[C@@H](CC(C)C)C(=O)N[C@@H](Cc1ccc(O)cc1)C(=O)N[C@@H](CCCNC(=N)N)C(N)=O` has a kon of 329 ± 120 M⁻¹ s⁻¹ (Fibroblast growth factor 14 (Homo sapiens, UniProt Q92915)).
For `CCCCCSc1nc2c([nH]1)c(=S)n(C)c(=S)n2C`, the remaining activity was 87% (Androgen receptor (AR, Homo sapiens, UniProt P10275); reporter gene, antagonist, PSA-luciferase; HeLa-A6; 10 µM, 24 h, together with: 5 nM dihydrotestosterone; baseline: maximal activity).
With `COc1c(F)c(F)c(C(=O)N[C@H]2[C@@H](O)[C@@H](CO)O[C@@H](S[C@@H]3O[C@H](CO)[C@H](O)[C@H](NC(=O)c4c(F)c(F)c(OC)c(F)c4F)[C@H]3OS(=O)(=O)O)[C@@H]2O)c(F)c1F` the binding stoichiometry was 1.06 (LGALS3; ITC; concentration not given, all parameters fitted).
`COc1ccc(-c2cc(C(F)(F)F)nc(S(=O)(=O)CCCC(=O)Nc3c(F)cc(F)cc3Br)n2)cc1OC` has an Emax of 57 ± 31% (GLP1R; cAMP accumulation, positive allosteric modulator; HEK-293T overexpressing GLP1R; together with: EC20 GLP-1).
`CC(C)C[C@H](NC(=O)[C@H](Cc1ccc(O)cc1)NC(=O)[C@@H](CCCNC(=N)N)NC(=O)[C@@H](CO)NC(=O)[C@H](Cc1ccccc1)NC(=O)[C@H](CC1CCCCC1)NC(=O)[C@@H](N)CC(=O)O)C(=O)N[C@@H](Cc1c[nH]c2ccccc12)C(=O)N[C@@H](CO)C(=O)O` gave a kon of 620000 M⁻¹ s⁻¹ (Urokinase plasminogen activator surface receptor (Homo sapiens, UniProt Q03405); binding, SPR).
For `CNc1ccccc1C(=O)O[C@H]1C[C@H](n2cnc3c(N)ncnc32)O[C@@H]1COP(=O)(O)OP(=O)(O)O`, “pocket reverse rate constant” read 0.85 ± 0.12 s⁻¹ (Unconventional myosin-Va (Gallus gallus, UniProt Q02440, D297C/G292C/I296C/S293C/V295G); stopped-flow FRET; 10 °C, together with: MgCl2 2 mM).
With `CC(C)(O)c1ccc(N2Cc3c(ccnc3-c3ccc(F)cc3OCC(F)(F)F)C2=O)cc1` the Km was 3.02 ± 0.11 µM (UGCG (Homo sapiens, UniProt Q16739); enzyme activity; concentration not given, together with: UDP-glucose, ceramide 7.4 µM).
With `CCC(C)N(C)C(=O)C(C)Cc1cc(-c2ccccc2)nc2ccccc12` (stereo not shown) the lipophilic efficiency was 2.9 ± 0.2 (Tspo (Rattus norvegicus, UniProt P16257); binding; rat brain homogenate; pKi minus clogD).

For quick reference, copied from above:
For `CN(C1COC1)C(C)(C)/C=C(\C#N)C(=O)N1CCC[C@H]1Cn1nc(-c2ccc(Oc3ccccc3)cc2F)c2c(N)ncnc21`, the target occupancy was 74 ± 9% (Tyrosine-protein kinase (Rattus norvegicus, UniProt Q5S255); rat, PBMC; oral, 40 mg/kg, 1 h, together with: BODIPY probe).
`CC(C)(Cn1cc(-c2cnc3cccnn23)nn1)c1c[nH]c2ccccc12` — result for “fold shift of EC50”: 86 fold (GLP1R; positive allosteric modulator, refers to: cAMP; CHO-K1 expressing GLP1R; 10 µM, together with: GLP-1(9-36); baseline: GLP-1 alone).
`CC[C@H](C)[C@H](NC(=O)[C@@H](NC(=O)[C@H](Cc1ccc(O)cc1)NC(=O)[C@H](Cc1ccc(OP(=O)(O)O)cc1)NC(=O)[C@H](CC(N)=O)NC(=O)[C@H](CCC(=O)O)NC(=O)[C@H](Cc1ccccc1)NC(=O)[C@@H](NC(=O)[C@H](CO)NC(=O)[C@H](CCC(=O)O)NC(=O)[C@H](CCCCN)NC(=O)[C@H](Cc1ccccc1)NC(=O)[C@@H](N)CCCCN)C(C)C)C(C)C)C(=O)N[C@@H](Cc1ccc(O)cc1)C(=O)N[C@@H](CO)C(=O)N[C@@H](CO)C(=O)N[C@@H](CCSC)C(=O)N[C@@H](CC(C)C)C(=O)N[C@@H](Cc1ccc(O)cc1)C(=O)N[C@@H](CCCNC(=N)N)C(N)=O` has a kon of 329 ± 120 M⁻¹ s⁻¹ (Fibroblast growth factor 14 (Homo sapiens, UniProt Q92915)).
